Experimental data from different studies.
Numbered parts are unrelated; each lists some results of a single study.
UniProt Q9P1W9, sequence (whole entry, looked up): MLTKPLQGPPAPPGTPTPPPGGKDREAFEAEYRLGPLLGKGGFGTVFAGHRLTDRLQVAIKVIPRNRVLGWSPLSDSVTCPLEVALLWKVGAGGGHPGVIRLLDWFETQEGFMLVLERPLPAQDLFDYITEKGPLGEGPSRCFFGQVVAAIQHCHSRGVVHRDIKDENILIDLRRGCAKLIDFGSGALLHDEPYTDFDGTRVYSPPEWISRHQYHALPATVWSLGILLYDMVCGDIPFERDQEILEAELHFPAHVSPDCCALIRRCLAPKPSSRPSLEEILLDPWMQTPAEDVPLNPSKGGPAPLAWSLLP
UniProt P51817, sequence (whole entry, looked up): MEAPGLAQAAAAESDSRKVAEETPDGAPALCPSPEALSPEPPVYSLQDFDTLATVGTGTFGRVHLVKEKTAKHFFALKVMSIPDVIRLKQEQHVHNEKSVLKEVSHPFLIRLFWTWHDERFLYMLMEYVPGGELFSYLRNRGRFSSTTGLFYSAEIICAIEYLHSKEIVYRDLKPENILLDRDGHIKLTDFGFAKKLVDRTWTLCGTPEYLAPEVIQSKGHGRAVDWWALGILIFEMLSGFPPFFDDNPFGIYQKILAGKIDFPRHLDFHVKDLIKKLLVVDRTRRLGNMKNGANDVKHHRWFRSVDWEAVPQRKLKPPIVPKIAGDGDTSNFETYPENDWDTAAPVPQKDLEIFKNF
UniProt P21709, sequence (whole entry, looked up): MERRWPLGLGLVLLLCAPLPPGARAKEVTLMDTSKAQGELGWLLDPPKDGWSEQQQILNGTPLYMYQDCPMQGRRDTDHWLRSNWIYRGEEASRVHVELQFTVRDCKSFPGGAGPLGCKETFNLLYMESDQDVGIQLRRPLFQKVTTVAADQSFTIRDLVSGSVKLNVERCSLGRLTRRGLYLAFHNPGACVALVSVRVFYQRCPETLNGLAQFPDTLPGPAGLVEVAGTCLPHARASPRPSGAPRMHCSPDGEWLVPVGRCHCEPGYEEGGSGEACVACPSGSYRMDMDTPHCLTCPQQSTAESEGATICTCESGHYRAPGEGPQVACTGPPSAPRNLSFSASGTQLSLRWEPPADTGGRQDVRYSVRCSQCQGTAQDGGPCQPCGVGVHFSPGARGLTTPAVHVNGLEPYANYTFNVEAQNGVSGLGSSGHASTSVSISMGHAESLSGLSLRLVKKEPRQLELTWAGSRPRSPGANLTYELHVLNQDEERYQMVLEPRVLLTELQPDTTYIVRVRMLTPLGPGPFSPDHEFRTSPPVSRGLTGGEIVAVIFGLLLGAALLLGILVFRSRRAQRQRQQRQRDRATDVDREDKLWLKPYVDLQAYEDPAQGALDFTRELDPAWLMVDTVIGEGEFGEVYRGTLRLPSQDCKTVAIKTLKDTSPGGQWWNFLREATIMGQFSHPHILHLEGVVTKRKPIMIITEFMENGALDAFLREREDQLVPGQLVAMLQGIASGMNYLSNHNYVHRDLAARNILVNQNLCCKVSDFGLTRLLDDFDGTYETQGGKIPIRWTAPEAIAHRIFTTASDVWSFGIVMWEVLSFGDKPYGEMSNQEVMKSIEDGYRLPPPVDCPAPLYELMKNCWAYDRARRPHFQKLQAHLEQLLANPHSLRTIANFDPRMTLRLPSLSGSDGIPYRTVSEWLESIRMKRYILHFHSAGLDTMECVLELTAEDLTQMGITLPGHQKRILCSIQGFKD
UniProt P42336, sequence (whole entry, unmodified, looked up): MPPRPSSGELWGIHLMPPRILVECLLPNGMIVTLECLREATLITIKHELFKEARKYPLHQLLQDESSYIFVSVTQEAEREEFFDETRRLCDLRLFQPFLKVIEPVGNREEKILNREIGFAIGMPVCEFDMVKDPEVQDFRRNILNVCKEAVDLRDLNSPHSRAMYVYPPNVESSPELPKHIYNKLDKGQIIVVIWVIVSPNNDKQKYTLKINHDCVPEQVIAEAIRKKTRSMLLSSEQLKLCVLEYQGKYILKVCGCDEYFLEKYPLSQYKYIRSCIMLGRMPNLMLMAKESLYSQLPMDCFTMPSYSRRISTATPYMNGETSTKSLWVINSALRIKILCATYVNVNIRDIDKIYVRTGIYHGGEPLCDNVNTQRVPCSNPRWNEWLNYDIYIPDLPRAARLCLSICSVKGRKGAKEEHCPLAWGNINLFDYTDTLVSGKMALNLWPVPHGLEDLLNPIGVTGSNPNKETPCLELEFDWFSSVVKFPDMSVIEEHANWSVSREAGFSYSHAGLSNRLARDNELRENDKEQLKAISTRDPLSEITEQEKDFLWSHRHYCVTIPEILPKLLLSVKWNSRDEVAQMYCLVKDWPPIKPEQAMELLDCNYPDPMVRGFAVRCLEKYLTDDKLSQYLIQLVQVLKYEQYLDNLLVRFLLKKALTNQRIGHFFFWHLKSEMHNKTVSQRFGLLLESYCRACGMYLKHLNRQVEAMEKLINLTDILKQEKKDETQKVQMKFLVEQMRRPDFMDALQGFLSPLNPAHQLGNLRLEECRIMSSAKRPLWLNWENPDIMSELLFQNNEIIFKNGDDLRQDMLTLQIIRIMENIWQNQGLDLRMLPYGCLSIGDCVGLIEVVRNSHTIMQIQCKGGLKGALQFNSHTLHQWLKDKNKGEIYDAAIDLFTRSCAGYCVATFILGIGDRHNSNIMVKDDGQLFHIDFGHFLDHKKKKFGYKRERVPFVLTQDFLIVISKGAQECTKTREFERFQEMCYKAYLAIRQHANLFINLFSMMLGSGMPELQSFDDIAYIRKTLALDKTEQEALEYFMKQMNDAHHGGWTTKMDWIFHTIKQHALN
UniProt P45985, sequence (whole entry, looked up): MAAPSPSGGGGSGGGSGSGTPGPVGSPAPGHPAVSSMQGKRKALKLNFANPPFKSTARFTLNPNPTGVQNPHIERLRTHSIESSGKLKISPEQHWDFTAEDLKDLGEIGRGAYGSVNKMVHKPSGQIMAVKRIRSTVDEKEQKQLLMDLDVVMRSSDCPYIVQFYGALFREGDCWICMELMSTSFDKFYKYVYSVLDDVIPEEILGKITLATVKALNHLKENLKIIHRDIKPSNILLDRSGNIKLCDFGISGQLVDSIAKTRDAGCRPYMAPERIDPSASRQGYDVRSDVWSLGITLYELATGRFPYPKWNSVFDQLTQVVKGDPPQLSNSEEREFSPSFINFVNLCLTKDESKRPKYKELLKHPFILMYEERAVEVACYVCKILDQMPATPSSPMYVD
UniProt Q96BR1, sequence (whole entry, looked up): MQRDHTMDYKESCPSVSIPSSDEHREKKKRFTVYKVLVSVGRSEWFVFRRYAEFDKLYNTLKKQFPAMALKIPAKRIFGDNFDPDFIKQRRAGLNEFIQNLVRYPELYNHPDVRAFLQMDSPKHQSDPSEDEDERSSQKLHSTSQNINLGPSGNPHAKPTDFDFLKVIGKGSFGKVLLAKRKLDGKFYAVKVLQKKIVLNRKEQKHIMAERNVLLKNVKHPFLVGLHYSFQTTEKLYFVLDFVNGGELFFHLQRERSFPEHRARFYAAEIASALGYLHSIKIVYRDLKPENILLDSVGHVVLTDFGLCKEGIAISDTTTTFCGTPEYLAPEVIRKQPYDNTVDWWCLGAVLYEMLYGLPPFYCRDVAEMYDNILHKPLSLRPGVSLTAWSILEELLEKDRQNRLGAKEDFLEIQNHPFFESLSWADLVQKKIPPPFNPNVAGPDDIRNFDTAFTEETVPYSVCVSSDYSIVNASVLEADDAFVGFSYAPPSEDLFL
UniProt P19784, sequence (whole entry, looked up): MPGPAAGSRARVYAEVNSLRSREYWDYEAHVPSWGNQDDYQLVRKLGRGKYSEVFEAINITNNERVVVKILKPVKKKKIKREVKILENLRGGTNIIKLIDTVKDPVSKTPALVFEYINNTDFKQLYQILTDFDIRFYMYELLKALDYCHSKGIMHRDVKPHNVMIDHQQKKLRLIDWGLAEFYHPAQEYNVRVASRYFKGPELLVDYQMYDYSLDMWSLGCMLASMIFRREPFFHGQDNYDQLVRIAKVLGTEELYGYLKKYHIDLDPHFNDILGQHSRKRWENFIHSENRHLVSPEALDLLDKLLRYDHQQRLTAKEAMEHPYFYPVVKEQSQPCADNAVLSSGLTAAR

Set 1
Target: Eukaryotic initiation factor 4A-I (EIF4A1, Homo sapiens, UniProt P60842)
UniProt P60842, sequence (whole entry, looked up): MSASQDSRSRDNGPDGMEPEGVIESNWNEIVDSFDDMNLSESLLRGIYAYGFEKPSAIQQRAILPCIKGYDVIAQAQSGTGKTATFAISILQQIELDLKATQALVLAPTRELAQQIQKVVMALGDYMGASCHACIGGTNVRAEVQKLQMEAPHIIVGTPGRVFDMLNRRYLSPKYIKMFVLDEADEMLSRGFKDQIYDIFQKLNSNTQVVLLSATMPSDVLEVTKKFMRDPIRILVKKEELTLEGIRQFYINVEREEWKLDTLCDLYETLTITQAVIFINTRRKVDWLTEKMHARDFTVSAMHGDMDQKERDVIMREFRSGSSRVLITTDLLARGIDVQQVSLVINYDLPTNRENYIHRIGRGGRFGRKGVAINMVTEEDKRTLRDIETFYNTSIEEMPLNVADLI
Effect on: RNA clamping
Technique: fluorescence polarization
Concentration: concentration not given
Added: FAM-labelled poly r(AG)8 RNA
Direction: higher = more clamping
Structure (SMILES)	fluorescence polarization change
COC(=O)[C@H]1C(=O)[C@@]2(NCCCC(OC)OC)c3c(OC)cc(OC)cc3O[C@@]2(c2ccc(OC)cc2)[C@@H]1c1ccccc1	9.3 mP
COCCN[C@@]12C(=O)[C@H](C(=O)N(C)C)[C@@H](c3ccccc3)[C@]1(c1ccc(OC)cc1)Oc1cc(OC)cc(OC)c12	-12.9 mP
COC(=O)[C@H]1C(=O)[C@@]2(NCc3nccn3C)c3c(OC)cc(OC)cc3O[C@@]2(c2ccc(OC)cc2)[C@@H]1c1ccccc1	-8.4 mP
COc1ccc([C@]23Oc4cc(OC)cc(OC)c4[C@@]4(O[C@@H]5CCCN5C(=O)[C@@H]4[C@H]2c2ccccc2)[C@@H]3O)cc1	-12.8 mP
COC(=O)[C@@H]1[C@@H](c2ccccc2)[C@]2(c3ccc(OC)cc3)Oc3cc(OC)cc(OC)c3[C@@]23OC(c2cccc(OC)c2)=N[C@@]13O	-0.1 mP
CCCc1ccc(C(=O)[C@H]2[C@@H](O)[C@@]3(O)c4c(OC)cc(OC)cc4O[C@@]3(c3ccc(OC)cc3)[C@@H]2c2ccccc2)o1	3.3 mP
COc1ccc([C@@]23Oc4cc(OC)cc(OC)c4[C@]2(O)c2nc(C)[nH]c(=O)c2[C@H]3c2ccccc2)cc1	63.4 mP
COC(=O)[C@@H]1[C@@H](c2ccccc2)[C@]2(c3ccc(OC)cc3)Oc3cc(OC)cc(OC)c3[C@@]23OC(Cc2ccccc2)=N[C@@]13O	12.3 mP
COc1ccc([C@@]23Oc4cc(OC)cc(OC)c4[C@]2(O)C=C(C(=O)c2ccco2)[C@H]3c2ccccc2)cc1	23.9 mP
CCCN[C@@]12C(=O)[C@H](C(=O)N(C)C)[C@@H](c3ccccc3)[C@]1(c1ccc(OC)cc1)Oc1cc(OC)cc(OC)c12	-8.9 mP
COc1ccc([C@@]23Oc4cc(OC)cc(OC)c4[C@]2(OC)c2nc(-c4ccccc4)n(C)c(=O)c2[C@H]3c2ccccc2)cc1	-13 mP
COC(=O)[C@@H]1[C@@H](c2ccccc2)[C@]2(c3ccc(OC)cc3)Oc3cc(OC)cc(OC)c3[C@@]23NC(CCl)=N[C@@]13O	25.7 mP

Set 2
Target: Calcium/calmodulin-dependent protein kinase type II subunit gamma (CAMK2G, Homo sapiens, UniProt Q13555)
UniProt Q13555, sequence (whole entry, looked up): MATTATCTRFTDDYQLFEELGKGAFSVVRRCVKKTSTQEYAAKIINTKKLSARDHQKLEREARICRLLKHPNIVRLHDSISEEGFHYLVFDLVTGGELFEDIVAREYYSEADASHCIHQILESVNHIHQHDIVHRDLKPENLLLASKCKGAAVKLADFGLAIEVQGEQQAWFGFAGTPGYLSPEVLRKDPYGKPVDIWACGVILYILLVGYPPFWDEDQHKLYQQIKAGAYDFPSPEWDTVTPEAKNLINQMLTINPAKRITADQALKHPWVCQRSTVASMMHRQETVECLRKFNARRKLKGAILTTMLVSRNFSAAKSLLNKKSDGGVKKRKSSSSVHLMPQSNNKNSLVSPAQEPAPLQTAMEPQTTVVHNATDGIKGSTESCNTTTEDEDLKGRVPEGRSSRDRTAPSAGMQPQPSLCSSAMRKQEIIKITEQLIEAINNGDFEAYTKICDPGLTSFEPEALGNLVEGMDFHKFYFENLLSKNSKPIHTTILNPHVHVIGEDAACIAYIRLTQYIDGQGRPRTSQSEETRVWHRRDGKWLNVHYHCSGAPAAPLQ
Effect on: enzyme activity
Action: inhibitor
Concentration: 0.5 µM
Reference: control
SMILES	remaining activity [%]
N#Cc1c(NC(=O)c2cccc3ccccc23)sc2c1CCCC2	99.6
COc1cc2ncnc(Nc3cccc(Cl)c3)c2cc1OC	97.3
O=C(Nc1cccc(Nc2nccc(Nc3cccc(C(F)(F)F)c3)n2)c1)C1CC1	108
Cc1cn(-c2cc(NC(=O)c3ccc(C)c(Nc4nccc(-c5cccnc5)n4)c3)cc(C(F)(F)F)c2)cn1	111
O=c1cc(-c2cccc3c2Sc2ccccc2S3)oc(N2CCOCC2)c1	106
Nc1cccc(-c2cc3c(Oc4cccc(O)c4)ncnc3[nH]2)c1	105
CCN(CC)CCNC(=O)c1c(C)[nH]c(/C=C2\C(=O)Nc3ccc(Cl)cc32)c1C	8.13
CN(C)C[C@H]1CCn2c(c(C3=C(c4cn(C)c5ccccc45)C(=O)NC3=O)c3ccccc32)C1	100
COc1cc2c(cc1OC)-c1[nH]nc(Nc3cccc(F)c3)c1C2	101
Ic1cccc(CSc2nnc(-c3ccncc3)o2)c1	96.8
N#C/C(=C\c1ccc(O)c(O)c1)C(=O)NCc1ccccc1	94.1
CCN(CC)C(=O)c1ccc(Nc2nc(OCC3CCCCC3)c3[nH]cnc3n2)cc1	95.2

Set 3
Cell line: Huh-7
Concentration: 10 µM
Time: 24 h
Structure (SMILES)	viability
N[C@@H](Cc1cc(I)c(Oc2ccc(O)c(I)c2)c(I)c1)C(=O)O	103%
Cc1cc(CC(=O)O)n(C)c1C(=O)c1ccc(Cl)cc1	101%
COc1ccc(C(=O)CC(=O)c2ccc(C(C)(C)C)cc2)cc1	91.4%
O=C(O)CN1C(=O)c2cccc3cccc(c23)C1=O	98.9%
CC(C)(C)NC[C@H](O)COc1nsnc1N1CCOCC1	103%
O=c1ccc2ccccc2o1	107%
NS(=O)(=O)c1cc(C2(O)NC(=O)c3ccccc32)ccc1Cl (centres unmarked)	102%
CCOC(=O)[C@@](C)(N)Cc1ccc(O)c(O)c1	96.4%
Cc1onc(-c2c(Cl)cccc2Cl)c1C(=O)N[C@@H]1C(=O)N2[C@@H]1SC(C)(C)[C@@H]2C(=O)O	96.3%
COc1cc(NS(=O)(=O)c2ccc(N)cc2)ncn1	100%

Set 4
Structure (SMILES): C[C@H](c1ccnc(Nc2nc3ccc(-c4cc(N(C)C)ncn4)cc3[nH]2)c1)N1CCN(C(=O)CC(F)(F)F)CC1
Technique: competition with immobilised ligand
Concentration: 0.1 µM
target	test	remaining binding [%]
MAP2K4 (Homo sapiens, UniProt P45985)	cell-free assay	100
BRAF (Homo sapiens, UniProt P15056)	cell-free assay	100
SGK3 (Homo sapiens, UniProt Q96BR1)	cell-free assay	100
ACVR1 (Homo sapiens, UniProt Q04771)	cell-free assay	100
PIK3C3 (Homo sapiens, UniProt Q8NEB9)	cell-free assay	100
ACVR1B (Homo sapiens, UniProt P36896)	cell-free assay	94
PIP5K1C (Homo sapiens, UniProt O60331)	cell-free assay	89
EPHA1 (Homo sapiens, UniProt P21709)	cell-free assay	99
PRKX (Homo sapiens, UniProt P51817)	cell-free assay	99
TNNI3K (Homo sapiens, UniProt Q59H18)	cell-free assay	59
CSNK2A2 (Homo sapiens, UniProt P19784)	cell-free assay	100
MAP3K19 (Homo sapiens, UniProt Q56UN5)	binding	10
PIM2 (Homo sapiens, UniProt Q9P1W9)	cell-free assay	100
DYRK2 (Homo sapiens, UniProt Q92630)	cell-free assay	87
KIT (Homo sapiens, UniProt P10721)	cell-free assay	88
PIK3CA (Homo sapiens, UniProt P42336, I800L)	cell-free assay	100

Excerpt of the above (set 4):
target	test	remaining binding [%]
EPHA1 (Homo sapiens, UniProt P21709)	cell-free assay	99
PRKX (Homo sapiens, UniProt P51817)	cell-free assay	99
TNNI3K (Homo sapiens, UniProt Q59H18)	cell-free assay	59
